Assay results pooled from the literature.
Compare with care: the assays were run in different laboratories. Values joined by “and” are separate records of one study, mostly repeats; a detail may differ. ± gives the spread as reported.

| Compound | assay | test system | setting | scale | quantity | result |
| --- | --- | --- | --- | --- | --- | --- |
| CC[C@H](C)[C@H](NC(=O)[C@@H](Cc1c[nH]c2ccccc12)NC(=O)[C@@H]1CCCN1C(=O)[C@H](CCCCN)NC(=O)[C@H](CCCCN)NC(=O)CCNC(=O)CCNC(=O)CN1CCN(CC(=O)O)CCN(CC(=O)O)CCN(CC(=O)O)CC1)C(=O)N[C@@H](C[Si](C)(C)C)C(=O)O [gallium-68 labelled] | – | nude mouse HT-29 xenograft, stomach | 90 min | – | tissue uptake | 0.24 ± 0.12 %ID/g |
| CC(C)(CCCC/C=C/CCCCCC(C)(C)C(=O)O)C(=O)O | – | beagle dog, both sexes | oral, dose not given, 7 h | – | plasma concentration | 12100 ng/mL |
| CC(C)C[C@H](N)C(=O)N1CCC[C@H]1C(=O)N[C@@H](Cc1ccccc1)C(=O)N[C@@H](Cc1ccccc1)C(=O)N[C@@H](CC(=O)O)C(N)=O | RP-HPLC | 50% human serum | 100 µM, 24 h, 37 °C | – | intact peptide remaining | 32% |
| CC(C)[C@H](NC(=O)[C@@H](NC(=O)[C@H](CCCNC(=N)N)NC(=O)[C@H](CCCNC(=N)N)NC(=O)[C@H](CCCNC(=N)N)NC(=O)[C@H](CCC(N)=O)NC(=O)[C@H](CCCNC(=N)N)NC(=O)[C@H](CCCNC(=N)N)NC(=O)[C@H](CCCCN)NC(=O)[C@H](CCCCN)NC(=O)[C@H](CCCNC(=N)N)NC(=O)CN)[C@@H](C)O)C(=O)N[C@H](C(=O)N[C@@H](CO)C(=O)N1CCC[C@H]1C(=O)O)[C@@H](C)O | – | ICR mice, male, spleen | intranasal, 10 mg/kg daily, 4 weeks | – | organ weight | 0.086 ± 0.007 g |
| CC(C)[C@@H]1NC(=O)CNC(=O)[C@H](CC(N)=O)NC(=O)[C@H](CCCNC(=N)N)NC(=O)[C@H](Cc2ccc(O)cc2)NC(=O)[C@H](C(C)C)NC(=O)[C@@H](NC(=O)[C@@H](NC(=O)[C@H](CC(N)=O)NC(=O)[C@H](Cc2c[nH]c3ccccc23)NC(=O)[C@H](C)NC(=O)[C@H](Cc2ccccc2)NC(=O)CNC(=O)[C@H](CCCCN)NC(=O)[C@H](Cc2ccccc2)NC(=O)[C@H](Cc2ccccc2)NC(=O)[C@H](CCCCN)NC(=O)OCC2c3ccccc3-c3ccccc32)C(C)C)CSSC[C@@H](C(=O)N[C@@H](Cc2c[nH]cn2)C(=O)N[C@@H](CCCNC(=N)N)C(=O)N[C@@H](CCCNC(=N)N)C(=O)N[C@@H](C)C(=O)N[C@@H](CC(N)=O)C(N)=O)NC(=O)[C@H](C(C)C)NC(=O)[C@H](CCCNC(=N)N)NC1=O | – | ICR mouse, blood | intramammary, 10 mg/kg, day 5, 3 d dosing | – | globulin | 18.85 ± 0.06 g/L |
| CN1Cc2cc(Cl)ccc2-n2c(nnc2C2CCN(c3cccc(F)n3)CC2)C1 | mass spectrometry | male Sprague-Dawley rat, brain | intravenous, 0.03 mg/kg, 5 min | – | concentration | 7.2 ng/mL |
| CC[C@H](C)[C@H](NC(=O)[C@H](CCCCN)NC(=O)CNC(=O)[C@H](CC(C)C)NC(=O)[C@H](Cc1ccccc1)NC(=O)[C@H](CCCCN)NC(=O)[C@H](CO)NC(=O)[C@H](Cc1ccccc1)NC(=O)[C@H](Cc1c[nH]c2ccccc12)NC(=O)[C@H](CCC(N)=O)NC(=O)[C@@H](NC(=O)[C@H](Cc1ccccc1)NC(=O)CCCCCNC(=O)CN1CCN(CC(=O)O)CCN(CC(=O)O)CCN(CC(=O)O)CC1)C(C)C)C(=O)N[C@@H](CCC(=O)O)C(=O)N1CCC[C@H]1C(=O)N[C@@H](CC(=O)O)C(=O)N[C@H](C(=O)N[C@@H](CO)C(=O)N[C@@H](CCC(N)=O)C(=O)N[C@H](C(=O)N[C@@H](CCC(N)=O)C(=O)N[C@@H](CC(=O)O)C(=O)N1CCC[C@H]1C(=O)N[C@@H](CC(N)=O)C(=O)N[C@@H](CC(=O)O)C(=O)N[C@@H](CCC(N)=O)C(=O)N[C@@H](Cc1ccc(O)cc1)C(=O)N[C@@H](CCC(=O)O)C(=O)N1CCC[C@H]1C(=O)N[C@@H](Cc1ccccc1)C(=O)O)C(C)C)C(C)C [copper-64 labelled] | – | C57BL/6 mice, large intestine | vehicle, intratracheal instillation | – | tissue uptake | 4.13 ± 2.7 %ID/g |
| O=C1NC2(CC2)COc2ncc(F)cc2[C@H]2COCCN2c2ccn3ncc1c3n2 | – | Sprague-Dawley rat, female, serum | oral, 20 mg/kg/day, 4 weeks daily, end of recovery period | – | potassium | 4.1 ± 0.24 mmol/L |
| COc1cnc2cccc(N3CCc4c(cc(Cn5ccnc5)cc4-c4cn(C)nc4C(F)(F)F)C3=O)c2c1 | – | BALB/c nude mice, MV4-11 xenograft | intraperitoneal, 50 mg/kg, day 28 | – | body weight | 21 g and 20.1 g and 22.2 g and 21.3 g and 22.4 g |
| CC[C@H](C)[C@H](NC(=O)[C@H](C)NC(=O)[C@H](CCCCN)NC(=O)[C@H](CC(C)C)NC(=O)[C@@H](N)Cc1ccccc1)C(=O)N[C@@H](CCCCN)C(=O)N[C@@H](CCCCN)C(=O)N[C@@H](Cc1ccccc1)C(=O)NCC(=O)N[C@@H](CCCCN)C(=O)N[C@@H](CCC(=O)O)C(=O)N[C@@H](Cc1ccccc1)C(=O)N[C@@H](CCCCN)C(=O)N[C@@H](CCCCN)C(=O)N[C@H](C(=O)NCC(=O)N[C@@H](C)C(=O)N[C@@H](CCCCN)C(=O)N[C@@H](CC(C)C)C(=O)N[C@@H](CCCCN)C(=O)O)[C@@H](C)CC | – | human red blood cells | 16 mg/L, 1 h | – | hemolysis | -0.0408% and 0.449% |
| CC[C@H](C)[C@H](NC(=O)[C@H](CCCN)NC(=O)[C@H](CCCNC(=N)N)NC(=O)[C@@H]1CCCN1C(=O)[C@@H]1CCCN1C(=O)[C@H](CCCNC(=N)N)NC(=O)[C@@H]1CCCN1C(=O)[C@H](CCCNC(=N)N)NC(=O)[C@@H]1CCCN1C(=O)[C@H](CC(C)C)NC(=O)[C@H](Cc1ccc(O)cc1)NC(=O)[C@@H]1CCCN1C(=O)[C@@H]1CCCN1C(=O)[C@H](CCCCN)NC(=O)[C@H](CC(=O)O)NC(=O)[C@@H](N)C(C)C)C(=O)N[C@@H](Cc1ccc(O)cc1)C(=O)N[C@@H](CC(N)=O)C(=O)N[C@@H](CCCN)C(N)=O | competitive ELISA | mouse CD-1, female, plasma | subcutaneous, 4.34 µmol/kg | – | AUC(0-inf) | 5500 ng·h/mL |
| C=Cc1c(C)c2cc3nc(c(CC(=O)[O-])c4[n-]c(cc5nc(cc1[n-]2)C(C)=C5CC)c(C)c4C(=O)[O-])C(CCC(=O)[O-])C3C.[Cu+2].[Na+].[Na+].[Na+] (stereo not shown) | – | Wistar rat, female | oral, 500 mg/kg daily, 28 days | – | serum alkaline phosphatase | 160 ± 28.5 U/L |
| CC(C)=CCC/C(C)=C/CCn1cc(CC(P(=O)(O)O)P(=O)(O)O)nn1 | qRT-PCR, item: Slco2a1 and Slc10a1 | CD-1 mice, liver | intravenous, 0.3 mg/kg | relative to: control | mRNA level | increased |
